# Assay results pooled from the literature.
# Compare with care: the assays were run in different laboratories. ± marks the error that the study gave.
Structure (SMILES),assay,test system,setting,endpoint,value
CC[C@H](C)C(=O)N1CCC(NC(=O)Nc2ccc(OC(F)(F)F)c(F)c2)CC1,,"healthy volunteers, both sexes","oral, 8 mg single dose, fasted state",participants with any Serious TEAE,0%
CCCCCCCCCCCCC(=O)O.O=C1CCCC2C3CCCN4CCCC(CN12)C34 (centres unmarked),shake-flask,simulated gastric fluid,"pH 1.2, 25 °C",log octanol-water partition coefficient,-0.43
COc1cc(NC(=O)C(=O)c2c(C)n(Cc3ccc(Cl)cc3)c3ccc(C)cc23)ccn1,,"cynomolgus monkey, male and female, plasma","intravenous, 1 mg/kg, mean",clearance,9.35 mL/min/kg
C/C=C/C=C/C/C=C/CCCCCCCc1cccc(O)c1O,,"Wistar rat, male, plasma","intravenous, 20 mg/kg",volume of distribution,1.23 ± 0.05 L/kg
CC(C)[C@H](NC(=O)[C@H](Cc1c[nH]c2ccccc12)NC(=O)[C@H](Cc1ccccc1)NC(=O)[C@@H](NC(=O)[C@@H](NC(=O)[C@H](CCCCN)NC(=O)[C@@H](N)CCCCN)C(C)C)C(C)C)C(=O)N[C@@H](CCCCN)C(=O)N[C@@H](Cc1ccccc1)C(=O)N[C@@H](CCCCN)C(N)=O,"ELISA, item: IL-13","mouse, blood","intravenous, 500 µg/kg, 5 days",cytokine level,62 ± 4.31 pg/mL
CSCC[C@@H]1NC(=O)[C@@H]2CSSC[C@H](NC(=O)[C@H](CO)NC(=O)[C@H](C)N)C(=O)N[C@@H](CCCNC(=N)N)C(=O)N[C@@H]([C@@H](C)O)C(=O)N3CCC[C@H]3C(=O)N[C@@H](CCCCN)C(=O)N[C@@H](CC(=O)O)C(=O)N[C@H]3CSSC[C@H](NC(=O)[C@H](CCCCN)NC(=O)[C@H](CCCNC(=N)N)NC(=O)[C@H](CC(N)=O)NC1=O)C(=O)N[C@@H](CCCCN)C(=O)N[C@H]1CSSC[C@H](NC(=O)[C@@H]4CCCN4C(=O)[C@H](CC(=O)O)NC(=O)[C@H](C)NC3=O)C(=O)N[C@@H](C)C(=O)N[C@@H](CCCCN)C(=O)N[C@@H](CCC(=O)O)C(=O)N[C@@H]([C@@H](C)O)C(=O)NCC(=O)N[C@@H](CSSC[C@@H](C(N)=O)NC(=O)[C@H](CCCNC(=N)N)NC(=O)[C@H](CC(N)=O)NC1=O)C(=O)N1CCC[C@H]1C(=O)N[C@@H](Cc1ccc(O)cc1)C(=O)NCC(=O)N[C@@H](CCCCN)C(=O)N2,,"DA rat pristane-induced arthritis, serum","subcutaneous, 0.1 mg/kg every other day, 21 days",Potassium,4.68 mmol/L
C[C@]12CC[C@H](O)CC1CCC1C2[C@H](O)C(=O)[C@]2(C)[C@@H](c3ccc(=O)oc3)CC[C@]12O (some centres unmarked),"sulfation, substrate",pooled human liver cytosol,pH 7.4,Km,69 ± 11 µM
CC[C@H](C)[C@H](NC(=O)[C@H](CC(=O)O)NC(=O)[C@H](CO)NC(=O)[C@H](CCC(N)=O)NC(=O)[C@H](C)NC(=O)[C@H](CC(=O)O)NC(=O)[C@H](CCC(=O)O)NC(=O)[C@H](Cc1c[nH]cn1)NC(=O)[C@H](Cc1ccc(O)cc1)NC(=O)[C@H](C)NC(=O)[C@H](CC(=O)O)NC(=O)[C@H](CCC(=O)O)NC(=O)[C@H](Cc1c[nH]cn1)NC(=O)[C@H](Cc1ccc(O)cc1)NC(=O)[C@H](C)NC(=O)[C@H](CC(=O)O)NC(=O)[C@H](CCC(=O)O)NC(=O)[C@H](Cc1c[nH]cn1)NC(=O)[C@H](Cc1ccc(O)cc1)NC(=O)[C@H](C)NC(=O)[C@H](CC(=O)O)NC(=O)[C@H](CCC(=O)O)NC(=O)[C@H](Cc1c[nH]cn1)NC(=O)[C@H](Cc1ccc(O)cc1)NC(=O)[C@H](C)NC(=O)[C@H](CC(=O)O)NC(=O)[C@H](CCC(=O)O)NC(=O)[C@H](Cc1c[nH]cn1)NC(=O)[C@@H](N)Cc1ccc(O)cc1)C(=O)N[C@H](C(=O)N[C@@H](C)C(=O)N[C@@H](Cc1c[nH]cn1)C(=O)N[C@@H](CC(C)C)C(=O)N[C@@H](CC(C)C)C(=O)O)C(C)C,,normal mouse,dose not given,AST,50 ± 6 IU/L

# Excerpt of the above:
Structure (SMILES),assay,test system,setting,endpoint,value
CC[C@H](C)[C@H](NC(=O)[C@H](CC(=O)O)NC(=O)[C@H](CO)NC(=O)[C@H](CCC(N)=O)NC(=O)[C@H](C)NC(=O)[C@H](CC(=O)O)NC(=O)[C@H](CCC(=O)O)NC(=O)[C@H](Cc1c[nH]cn1)NC(=O)[C@H](Cc1ccc(O)cc1)NC(=O)[C@H](C)NC(=O)[C@H](CC(=O)O)NC(=O)[C@H](CCC(=O)O)NC(=O)[C@H](Cc1c[nH]cn1)NC(=O)[C@H](Cc1ccc(O)cc1)NC(=O)[C@H](C)NC(=O)[C@H](CC(=O)O)NC(=O)[C@H](CCC(=O)O)NC(=O)[C@H](Cc1c[nH]cn1)NC(=O)[C@H](Cc1ccc(O)cc1)NC(=O)[C@H](C)NC(=O)[C@H](CC(=O)O)NC(=O)[C@H](CCC(=O)O)NC(=O)[C@H](Cc1c[nH]cn1)NC(=O)[C@H](Cc1ccc(O)cc1)NC(=O)[C@H](C)NC(=O)[C@H](CC(=O)O)NC(=O)[C@H](CCC(=O)O)NC(=O)[C@H](Cc1c[nH]cn1)NC(=O)[C@@H](N)Cc1ccc(O)cc1)C(=O)N[C@H](C(=O)N[C@@H](C)C(=O)N[C@@H](Cc1c[nH]cn1)C(=O)N[C@@H](CC(C)C)C(=O)N[C@@H](CC(C)C)C(=O)O)C(C)C,,normal mouse,dose not given,AST,50 ± 6 IU/L
